Experimental data gathered from unrelated publications.
Lines come from different studies, so protocols differ. ± gives the spread as reported.

Amino acid sequences for entries named in this document (tags omitted). Residues count along the entry.
UniProt P53779, 1-422 isoform 2: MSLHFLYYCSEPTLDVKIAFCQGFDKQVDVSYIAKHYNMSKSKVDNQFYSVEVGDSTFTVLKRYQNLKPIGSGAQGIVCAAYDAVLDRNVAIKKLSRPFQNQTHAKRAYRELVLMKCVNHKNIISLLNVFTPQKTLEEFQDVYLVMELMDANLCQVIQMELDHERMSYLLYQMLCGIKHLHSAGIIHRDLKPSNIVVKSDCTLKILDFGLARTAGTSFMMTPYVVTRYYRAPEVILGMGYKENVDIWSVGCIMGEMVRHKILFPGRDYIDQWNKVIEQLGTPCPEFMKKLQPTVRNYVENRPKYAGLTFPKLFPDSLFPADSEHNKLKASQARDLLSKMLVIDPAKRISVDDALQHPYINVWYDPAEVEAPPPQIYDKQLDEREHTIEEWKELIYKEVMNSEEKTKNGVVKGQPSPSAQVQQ

O=C1Nc2cccc(C#CC3(O)CCNCC3)c2/C1=C/c1cc2ccccc2[nH]1
invadopodia formation (C8161.9 lacking LIC2; 100 nM; baseline: DMSO): no effect

CN1CCN(c2cc(C(=O)Nc3ccc4c(c3)-c3c(c(C(N)=O)nn3-c3ccc(F)cc3)CC4)c(Cl)cn2)CC1
TAK-1 phosphorylation (RA synovial fibroblasts; Western blot; concentration not given, 30 min pretreatment, IL-1β for 10 min, together with: IL-1β 1 ng/mL): no effect

Cc1cc(Nc2ncc3c(n2)N(C)C(=O)N(c2cc(NC(=O)c4cccc(C(F)(F)F)c4)ccc2C)C3)n(C)n1
GI50 (HepG2 (FGFR4 overexpressing); cell proliferation, CellTiter-Glo; 72 h): 597 ± 430 nM

Nc1ccc2cc(N)ncc2c1
mRNA level (LX-2; qPCR, measured: COL1A1; concentration not given, together with: TGF-β1): decreased

Nc1ncc(-c2ccc3ncnc(N4CCc5cc(F)c(Cl)cc54)c3c2)cn1
dose-normalised AUC(0-t) (CD1 mouse, brain; intravenous, 5 mg/kg): 580 mg·h/mL

Cc1ccc(NC(=O)c2cccc(C(F)(F)F)c2)cc1N1Cc2cnc(Nc3cnn(C)c3)nc2N(C)C1=O
GI50 (Huh-7 (FGFR4 overexpressing); cell proliferation, CellTiter-Glo; 72 h): 20 nM

CCOC(=O)C1=C(C)NC2=C(C(=O)CC(C)(C)C2)C1c1ccc(OCC(=O)NN=Cc2cccc(C=O)c2)cc1OCC(=O)NN=Cc1cccc(C=O)c1 (centres unmarked)
inhibition zone diameter (Pseudomonas aeruginosa; DSM 50070; concentration not given, 24 h): 2.3 ± 0.1 mm

CCN1CCN(c2ccc(Nc3ncc4c(n3)N(C)C(=O)N(c3cc(NC(=O)c5cccc(C(F)(F)F)c5)ccc3C)C4)cn2)CC1
GI50 (HepG2 (FGFR4 overexpressing); cell proliferation, CellTiter-Glo; 72 h): 440 ± 120 nM

COC(=O)[C@@]1(C)C=C(C(=O)Nc2cccc(C(=O)NC34CC(Nc5nccc(-c6cccnc6)n5)(C3)C4)c2)C(=O)CC1
remaining activity (Mitogen-activated protein kinase 10 (MAPK10, Homo sapiens, UniProt P53779); enzyme activity, inhibitor; 8.363e-05 µM): 1.05 fraction of control

Cc1ncsc1-c1ccc([C@H](C)NC(=O)[C@@H]2C[C@@H](O)CN2C(=O)[C@@H](NC(=O)CCCCCCC(=O)N2CCN(C[C@]3(C)CCC(c4ccc(Cl)cc4)=C(CN4CCN(c5ccc(C(=O)NS(=O)(=O)c6ccc(N[C@H](CCN7CCOCC7)CSc7ccccc7)c(S(=O)(=O)C(F)(F)F)c6)cc5)CC4)C3)CC2)C(C)(C)C)cc1
mRNA level (measured: Cdkn2a; naturally aged mice, kidney; intraperitoneal, 5 mg/kg every 3 days): no effect

CN(C)C(=O)Cn1cc(-c2ccc(-c3cncc4ccncc34)cc2)cn1
CD107a level (human NK cells; flow cytometry; concentration not given, ADCC): no effect

CN1CCN(c2ccc(-c3cccc(CN4CCN(CCNC(=O)CCCCCCCNc5cccc6c5C(=O)N(C5CCC(=O)NC5=O)C6=O)CC4)c3)cc2NC(=O)c2c[nH]c(=O)cc2C(F)(F)F)CC1 (centres unmarked)
down-regulated genes (MV4;11; RNA-seq; 0.5 µM, 4 d, unit not given; baseline: DMSO): 312

CCCCCCCCCCCCCC[C@@H](O)[C@@H](O)[C@H](CO[C@H]1O[C@H](CO)[C@H](O)[C@H](O)[C@H]1O)NC(=O)CCCCCCCCCCc1ccc(F)cc1
IL-4 secretion (human Vα24+ NKT cells; agonist, ELISA; 10 ng/mL, 24 h, unit not given, together with: CD1d-transfected HeLa cells; baseline: α-GalCer): 0.81 ± 0.13

CCOc1ccc(S(=O)(=O)NC(=O)Cc2ccc(I)cc2)cc1Br
inhibition (THP-1; CXCL10 secretion; cell supernatant; 100 µM): 71%

COc1cccc2c1C(=O)N1CCc3c([nH]c4ccccc34)C1N2Cc1ccc(C(=O)NCCCC(=O)NO)cc1 (racemic)
antiproliferative activity (HCT-116, MCF7, A549 cells; CCK-8; concentration not given): inactive

Cc1ccc(NC(=O)c2ccc(CN3CCC(N(C)C)C3)c(C(F)(F)F)c2)cc1N1Cc2cnc(Nc3cnn(C)c3)nc2N(C)C1=O (centres unmarked)
GI50 (Huh-7 (FGFR4 overexpressing); cell proliferation, CellTiter-Glo; 72 h): 21 ± 20 nM

CC(=O)OC1CC[C@H]2C3=C(CC[C@]12C)[C@]1(C)c2c(coc2C3=O)[C@H](OC(C)=O)[C@@H]2O[C@@H]21 (some centres unmarked)
ROS level (MDA-MB-231; DCFH-DA fluorescence; 50 µM; baseline: untreated): 3 fold

C=CC(=O)Nc1cccc(N(C(=O)OCc2ccc(F)cc2)c2ccnc(Nc3ccn(C)n3)n2)c1
selectivity ratio (Ba/F3 EGFR insSVD or wild type; cell growth; baseline: insSVD EC50 over wild-type EC50): 1.8

COC(=O)[C@@H]1C(c2nc3ccccc3o2)=Cc2cc3c(cc2[C@H]1c1cc(OC)c(OC)c(OC)c1)OCO3
selectivity index (Leishmania infantum; Alamar Blue; HepG2; baseline: CC50 HepG2 over EC50 amastigotes): 2

O=C(N/N=C/c1ccc(Sc2ccccn2)s1)c1cccc(Cl)c1
GI50 (D458 medulloblastoma; cell growth): 3700 nM

CCCCCCCCCCCCCC[C@@H](O)[C@@H](O)[C@H](CO[C@H]1O[C@H](CO)[C@H](O)[C@H](O)[C@H]1O)NC(=O)CCCCCc1ccccc1
IFN-γ/IL-4 ratio (human Vα24+ NKT cells; agonist; 10 ng/mL, 24 h, together with: CD1d-transfected HeLa cells; baseline: α-GalCer): 1.53 ± 0.15

CC(=NN=c1[nH]c2cc(F)c(F)cc2n1C)c1ccc(F)cn1
inhibition (LM2; cell migration area; 50 nM, two days; baseline: untreated): ~50%

COc1cc([C@@H]2c3cc4c(cc3[C@H](C=C(C)C)[C@H]3COC(=O)[C@H]23)OCO4)cc(OC)c1OC
selectivity index (Leishmania; mouse splenocytes; baseline: CC50 over amastigote EC50): 0.9

Cc1cc(OCCCc2c3n(c4c(-c5c(C)nn(C)c5C)c(Cl)ccc24)CCCN(c2cc(C(=O)O)cc4c2ccn4C)C3=O)cc(C)c1Cl
GI50 (K562; cell growth; 72 h, 10% FBS): 11500 ± 1500 nM

CCCCCCCCCCCCCC[C@@H](O)[C@@H](O)[C@H](CO[C@H]1O[C@H](CO)[C@H](O)[C@H](O)[C@H]1O)NC(=O)CCCCCCCCCCc1ccc(C(F)(F)F)cc1
IFN-γ secretion (human Vα24+ NKT cells; agonist, ELISA; 10 ng/mL, 24 h, unit not given, together with: CD1d-transfected HeLa cells; baseline: α-GalCer): 1.65 ± 0.2

O=C(NNC(=S)Nc1cccc(C(F)(F)F)c1)c1cccn1-c1ccc(F)cc1
PSA secretion (LNCaP; ELISA; 24 h, together with: DHT): inhibited

Cc1nn(C)c2c(C(C(=O)O)N3CC(OCCCCc4ccc5c(n4)NCCC5)C3)cccc12 (centres unmarked)
FAK phosphorylation (PAH PASMCs; Western blot, measured: FAK Tyr397): decreased

COc1ccc(CCC2OC(=O)C3CCCCN3C(=O)C(=O)C(C)(C)COC(=O)C=CCCN(C)C(=O)CNC(=O)C(COC(C)(C)C)N(C)C(=O)C(Cc3ccc4ccccc4c3)NC(=O)C(C)N(C)C(=O)COc3cccc2c3)cc1OC (centres unmarked)
cell proliferation (HEK-293T; alamar blue): inhibited

CCCCCCCCCCCCCC[C@@H](O)[C@@H](O)[C@H](CO[C@H]1O[C@H](CO)[C@H](O)[C@H](O)[C@H]1O)NC(=O)CCCCCCCCCc1ccccc1
IL-4 secretion (human Vα24+ NKT cells; agonist, ELISA; 10 ng/mL, 24 h, unit not given, together with: CD1d-transfected HeLa cells; baseline: α-GalCer): 0.59 ± 0.15

CC(=O)N1CCN(c2ccc(Nc3ncc4c(n3)N(C)C(=O)N(c3cc(NC(=O)c5cccc(C(F)(F)F)c5)ccc3C)C4)cn2)CC1
GI50 (Hep3B (FGFR4 overexpressing); cell proliferation, CellTiter-Glo; 72 h): 159 ± 110 nM

O=C(N/N=C/c1ccc(Sc2ncccn2)s1)c1cccc(F)c1
GI50 (D458 medulloblastoma; cell growth): 6300 nM

CCCCCCCCCCCCCC[C@@H](O)[C@@H](O)[C@H](CO[C@H]1O[C@H](CO)[C@H](O)[C@H](O)[C@H]1O)NC(=O)CCCCCCCCCCc1ccccc1
IFN-γ secretion (human Vα24+ NKT cells; agonist, ELISA; 10 ng/mL, 24 h, unit not given, together with: CD1d-transfected HeLa cells; baseline: α-GalCer): 1.22 ± 0.08

C=CC(=O)N1CCC(c2cc(Nc3cc4n(n3)CCOC4)c3ncnn3c2)C1 (single isomer, unassigned)
maximum inhibition (TMD8 wild type; calcium flux, FLIPR; 1 h preincubation, together with: anti-IgM): 40.6%

CCCCCCCCCCCCCC[C@@H](O)[C@@H](O)[C@H](CO[C@H]1O[C@H](CO)[C@H](O)[C@H](O)[C@H]1O)NC(=O)CCCCCCCCCCCCCCc1ccccc1
IFN-γ/IL-4 ratio (human Vα24+ NKT cells; agonist; 10 ng/mL, 24 h, together with: CD1d-transfected HeLa cells; baseline: α-GalCer): 0.24 ± 0.03

CC(=O)N1CCN(c2ccc(Nc3ncc4c(n3)N(C)C(=O)N(c3cc(NC(=O)c5ccc(CN6CCC(N(C)C)C6)c(C(F)(F)F)c5)ccc3C)C4)cn2)CC1 (centres unmarked)
GI50 (Hep3B (FGFR4 overexpressing); cell proliferation, CellTiter-Glo; 72 h): 8 nM

Excerpt of the above:
Cc1ccc(NC(=O)c2cccc(C(F)(F)F)c2)cc1N1Cc2cnc(Nc3cnn(C)c3)nc2N(C)C1=O
GI50 (Huh-7 (FGFR4 overexpressing); cell proliferation, CellTiter-Glo; 72 h): 20 nM

CC(=O)N1CCN(c2ccc(Nc3ncc4c(n3)N(C)C(=O)N(c3cc(NC(=O)c5cccc(C(F)(F)F)c5)ccc3C)C4)cn2)CC1
GI50 (Hep3B (FGFR4 overexpressing); cell proliferation, CellTiter-Glo; 72 h): 159 ± 110 nM

O=C1Nc2cccc(C#CC3(O)CCNCC3)c2/C1=C/c1cc2ccccc2[nH]1
invadopodia formation (C8161.9 lacking LIC2; 100 nM; baseline: DMSO): no effect
